Assay results from different studies.
Parts stem from different laboratories: compare values within a part only. Values joined by “and” are separate records of one study, mostly repeats; a detail may differ.

Study 1
Cell line: HEK-293T/ACE2
Concentration: concentration not given
Time: 16 (unit not given)
Reference: vehicle
Quantity: viability
CCCC(=O)O[C@]1(C(=O)CO)CC[C@H]2[C@@H]3CCC4=CC(=O)CC[C@]4(C)[C@H]3[C@@H](O)C[C@@]21C: 103%
CN1CCC(OC(c2ccccc2)c2ccccc2)CC1: 101%
COCCOC(=O)C1=C(C)NC(C)=C(C(=O)OC(C)C)C1c1cccc([N+](=O)[O-])c1 (centres unmarked): 102%
O=C(c1ccc(F)c(F)c1Nc1ccc(I)cc1F)N1CC(O)([C@@H]2CCCCN2)C1: 94.1%
COC(=O)c1ccccc1O: 98.3%
CCC1(c2ccccc2)C(=O)NCNC1=O: 99.7%
CC1CNc2c(cccc2S(=O)(=O)N[C@@H](CCCNC(=N)N)C(=O)N2CC[C@@H](C)C[C@@H]2C(=O)O)C1 (some centres unmarked): 107%
C=CC1=C(C(=O)O)N2C(=O)[C@@H](NC(=O)/C(=N\O)c3csc(N)n3)[C@H]2SC1: 97.8%
C[N+](C)(C)CC(=O)O: 94.5%
CN(C)CCC[C@@]1(c2ccc(F)cc2)OCc2cc(C#N)ccc21: 106%
CCCCc1ncc(/C=C(\Cc2cccs2)C(=O)O)n1Cc1ccc(C(=O)O)cc1: 99.7%
Nc1nc2c(c(=O)[nH]1)N(C=O)C(CNc1ccc(C(=O)N[C@@H](CCC(=O)O)C(=O)O)cc1)CN2 (some centres unmarked): 103%

Study 2
Target: DNA polymerase theta, ATPase domain (POLQ, Homo sapiens, UniProt O75417)
Chain of UniProt O75417 (whole entry, unmodified, looked up): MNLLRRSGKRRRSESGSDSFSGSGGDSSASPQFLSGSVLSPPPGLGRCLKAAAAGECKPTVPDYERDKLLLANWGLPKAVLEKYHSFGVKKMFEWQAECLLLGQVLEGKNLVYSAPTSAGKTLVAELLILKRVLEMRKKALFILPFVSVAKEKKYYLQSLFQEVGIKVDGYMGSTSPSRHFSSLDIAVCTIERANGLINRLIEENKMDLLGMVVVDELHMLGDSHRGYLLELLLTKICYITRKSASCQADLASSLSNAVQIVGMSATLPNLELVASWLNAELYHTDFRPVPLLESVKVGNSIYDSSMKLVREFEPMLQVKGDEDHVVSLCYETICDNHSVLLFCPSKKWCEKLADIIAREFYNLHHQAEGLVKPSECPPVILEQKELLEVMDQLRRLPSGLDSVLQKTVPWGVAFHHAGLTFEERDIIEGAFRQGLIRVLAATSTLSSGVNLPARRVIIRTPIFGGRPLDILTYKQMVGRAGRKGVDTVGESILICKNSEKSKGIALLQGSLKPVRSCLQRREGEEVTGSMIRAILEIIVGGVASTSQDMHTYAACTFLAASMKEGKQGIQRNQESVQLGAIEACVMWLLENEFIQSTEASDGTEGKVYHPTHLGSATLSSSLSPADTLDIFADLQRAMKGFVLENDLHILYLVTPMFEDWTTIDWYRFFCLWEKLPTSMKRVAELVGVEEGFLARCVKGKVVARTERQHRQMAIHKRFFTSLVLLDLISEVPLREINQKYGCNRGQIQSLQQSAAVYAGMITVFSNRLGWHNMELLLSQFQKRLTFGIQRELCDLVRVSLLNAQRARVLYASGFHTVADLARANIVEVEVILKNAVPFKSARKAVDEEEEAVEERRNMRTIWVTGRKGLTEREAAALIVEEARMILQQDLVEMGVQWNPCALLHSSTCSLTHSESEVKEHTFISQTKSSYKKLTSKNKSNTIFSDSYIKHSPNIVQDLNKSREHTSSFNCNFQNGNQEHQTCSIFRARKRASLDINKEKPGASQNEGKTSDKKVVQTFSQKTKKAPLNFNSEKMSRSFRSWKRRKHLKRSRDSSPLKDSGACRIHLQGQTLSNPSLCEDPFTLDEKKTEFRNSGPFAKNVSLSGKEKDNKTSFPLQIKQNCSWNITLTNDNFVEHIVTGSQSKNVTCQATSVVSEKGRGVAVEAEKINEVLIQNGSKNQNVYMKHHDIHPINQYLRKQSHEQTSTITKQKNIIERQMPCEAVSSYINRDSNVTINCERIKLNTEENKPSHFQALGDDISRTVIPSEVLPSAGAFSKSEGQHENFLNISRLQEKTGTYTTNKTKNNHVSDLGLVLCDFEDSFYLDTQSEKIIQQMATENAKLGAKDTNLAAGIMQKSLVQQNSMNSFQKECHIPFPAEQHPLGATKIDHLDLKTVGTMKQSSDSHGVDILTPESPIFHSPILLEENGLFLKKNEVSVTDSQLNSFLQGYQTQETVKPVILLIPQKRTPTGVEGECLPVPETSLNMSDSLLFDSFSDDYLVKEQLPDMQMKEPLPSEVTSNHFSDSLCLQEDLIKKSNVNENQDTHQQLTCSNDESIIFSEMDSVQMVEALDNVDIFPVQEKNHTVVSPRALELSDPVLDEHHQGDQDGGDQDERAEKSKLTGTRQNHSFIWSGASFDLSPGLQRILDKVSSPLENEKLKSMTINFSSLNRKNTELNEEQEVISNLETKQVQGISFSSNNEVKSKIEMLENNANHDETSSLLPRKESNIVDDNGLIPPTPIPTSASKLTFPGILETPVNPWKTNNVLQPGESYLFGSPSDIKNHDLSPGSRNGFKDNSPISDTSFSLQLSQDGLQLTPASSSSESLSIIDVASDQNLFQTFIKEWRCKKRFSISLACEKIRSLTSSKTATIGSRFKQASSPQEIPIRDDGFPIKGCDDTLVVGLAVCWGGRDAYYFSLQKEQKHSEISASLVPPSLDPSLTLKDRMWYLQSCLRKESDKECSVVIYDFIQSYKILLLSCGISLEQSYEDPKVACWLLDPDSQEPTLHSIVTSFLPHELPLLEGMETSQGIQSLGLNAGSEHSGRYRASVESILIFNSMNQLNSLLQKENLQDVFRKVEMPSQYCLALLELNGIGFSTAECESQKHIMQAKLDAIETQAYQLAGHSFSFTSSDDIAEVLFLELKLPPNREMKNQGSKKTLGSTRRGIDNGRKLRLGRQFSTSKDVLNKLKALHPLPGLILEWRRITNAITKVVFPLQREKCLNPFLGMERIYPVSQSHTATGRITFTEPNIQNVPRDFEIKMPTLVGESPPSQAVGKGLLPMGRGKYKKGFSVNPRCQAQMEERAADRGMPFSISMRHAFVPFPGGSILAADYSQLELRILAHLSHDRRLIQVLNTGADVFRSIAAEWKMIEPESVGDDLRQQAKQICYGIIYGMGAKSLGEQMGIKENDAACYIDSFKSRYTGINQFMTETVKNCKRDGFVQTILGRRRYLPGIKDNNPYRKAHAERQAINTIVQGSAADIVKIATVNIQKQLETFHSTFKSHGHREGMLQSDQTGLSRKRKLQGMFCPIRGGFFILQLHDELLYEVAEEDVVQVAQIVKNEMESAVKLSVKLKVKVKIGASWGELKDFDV
Effect on: enzyme activity
Action: inhibitor
Concentration: 77 µM
Quantity: remaining activity
C=CCN1CC[C@]23c4c5ccc(O)c4O[C@H]2C(=O)CC[C@@]3(O)[C@H]1C5: 101%
O=c1[nH]c2ccccc2n1CCCN1CCC(n2c(=O)[nH]c3cc(Cl)ccc32)CC1: 107%
O=C(N[C@H]1CN2CCC1CC2)c1ccc(Cl)cc1: 103%
NCC(CP(=O)(O)O)c1ccc(Cl)cc1 (centres unmarked): 97.7%
CCOc1ccccc1-n1c(C(C)N2CCN(C(=O)COc3ccc(Cl)cc3)CC2)nc2ccccc2c1=O (centres unmarked): 102%
NC1CCc2cc(O)c(O)cc2C1 (centres unmarked): 112%
CCc1c(C(=O)C(N)=O)c2c(OCC(=O)O)cccc2n1Cc1ccccc1: 95.9%
Clc1cc(I)cc(Cl)c1NC1=NCCN1: 138%
CNCC(=O)c1ccc(O)c(O)c1: 90%
COc1ccc2c(c1O)-c1cccc3c1[C@@H](C2)N(C)CC3: 103%
CN1CCN(c2nc3ccccc3nc2Cl)CC1: 104%

Study 3
Compound: CNC(=O)c1ccc(-c2cnn3ccc(C(=O)N(C)c4ccc(Cl)c(C(=O)OC)c4)cc23)cc1
Matrix: plasma
Route: oral
Dose: 10 mg/kg
Quantity: plasma concentration
female IFN-γ knockout C57BL/6 mice; 3 h: 2.7 nM and 2.24 nM and 1.02 nM
female IFN-γ knockout C57BL/6 mice; 1 h: 6.42 nM and 6.58 nM
female IFN-γ knockout C57BL/6 mice; 0.5 h: 3.17 nM and 2.16 nM
C57BL/6 IFN-γ knockout mouse, female; 0.25 h: 0.826 nM
C57BL/6 IFN-γ knockout mouse, female; 1 h: 12.2 nM
C57BL/6 IFN-γ knockout mouse, female; 0.5 h: 3.48 nM
female IFN-γ knockout C57BL/6 mice; 0.25 h: 0.818 nM
female IFN-γ knockout C57BL/6 mice; 7 h: 0.325 nM and 0.746 nM and 0.765 nM

Other studies, line by line
c1ccc(Oc2ccc(Nc3c4c(nc5ccccc35)CCC4)cc2)cc1 — cytotoxicity (HepG2; resazurin; 33.32 µM, 48 h): 48% and 42%

A few entries again (study 2):
CNCC(=O)c1ccc(O)c(O)c1: 90%
C=CCN1CC[C@]23c4c5ccc(O)c4O[C@H]2C(=O)CC[C@@]3(O)[C@H]1C5: 101%
Clc1cc(I)cc(Cl)c1NC1=NCCN1: 138%
